Results of several laboratories.
Every numbered part comes from another study and shows a few of its results, in no order. Changes are numbered by the printed parent chain.

Series 1 — technique: RNA Bind-n-Seq; molecule type: RNA; sample: in vitro; tested at: not given; reference: input RNA pool; direction: higher = stronger binding
Target: RING finger protein unkempt homolog, zinc fingers 1-6, GST-SBP tag (UNK, Homo sapiens, UniProt Q9C0B0, residues 30-357)
Setting: RNA with constant flanks, human and mouse sites, ends assumed
Shared flanks, not repeated: GGGAGUUCUACAGUCCGACGAUC … CAACAGAGGAUUGAGCAUCA
Residues (chain): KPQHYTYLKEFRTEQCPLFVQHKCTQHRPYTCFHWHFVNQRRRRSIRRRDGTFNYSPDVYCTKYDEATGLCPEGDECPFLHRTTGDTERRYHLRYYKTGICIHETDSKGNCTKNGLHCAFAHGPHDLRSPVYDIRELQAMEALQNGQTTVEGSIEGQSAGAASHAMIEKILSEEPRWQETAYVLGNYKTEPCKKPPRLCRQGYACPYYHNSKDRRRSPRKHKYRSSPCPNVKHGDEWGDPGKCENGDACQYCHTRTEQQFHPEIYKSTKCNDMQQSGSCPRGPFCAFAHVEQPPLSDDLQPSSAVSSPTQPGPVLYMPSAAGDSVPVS
`AAACGUCGCUUCAGGAAAUUCCUAGUGUAUGUUGCCAACUUCGAUGAAAAAGAUCCAAGAACUUUUGAAGGCAUUGAUCCUAAGAAGACCACAAUGCGAGAUGUGUAUAAGAAAUUUGAU` has a bound/input enrichment of 0.0667 ratio.
For `UCUCCCCCACCUCCUCCUCCUCCAGAAGAUUACGAAGAGGAGGAAGCUGCUGUGGUUGAGUAUAGUGAUCCUUAUGCUGAAGAGGACCCACCGUGGGCUCCACGUUCUUACUUGGAAAAG`, the bound/input enrichment was 0.0945 ratio.
`UUAGAUUCUGGGAAAUUCCGAGCCUUAGGAUGCAUCUUGUCUGAGUUGAAACAGAAGGGUGAUAGAGUUGUAUUAUUCAGCCAGUUUACCAUGAUGCUGGAUAUACUAGAGGUUCUCUUA` gave a bound/input enrichment of 0.731 ratio.
`CAAAACUUUGAAAACAUUCAGCUGUCAAAAGCUAUGGAAAUUCUUAGAAAUAACACACAUUUAUCUAUCACUGUGAAAACCAAUUUAUUUGUAUUUAAAGAACUUCUAACAAGAUUGUCA` has a bound/input enrichment of 0.761 ratio.
The bound/input enrichment of `GCAGAUGCAGUGGGGGUAACAGUUGUUCUGAUUACUUGCACCUACCGAGGUCAAGAAUUUAUUAGAGUUGGCUACUAUGUAAAUAAUGAAUACACUGAAACAGAAUUAAGGGAAAACCCA` is reported as 0.309 ratio.
The bound/input enrichment of `GAAUUGCAGGAUAUGAUCAAUGAAGUGGAUGCUGAUGGUAAUGGCACCAUUGACUUCCCCGAAUUUUUGACUAUGAUGGCUAGAAAAAUGAAAGAUACAGAUAGUGAAGAAGAAAUCCGU` is reported as 0.607 ratio.
With `UGUACUGACCAGAGGCAGAGUGCAUUCCCGUUUUCCCUCAGUACUUGAUGUUGAGACAAGUGUGCAGGCACAGCUGUAAUUAAUGCAGGCCAACCGACACUUGGAGGGCAGCUUUGGCCU` the bound/input enrichment was 0.0438 ratio.
With `CGUCCCGUCCGCGUGGUGUGAAGCGGCGCUGGAGGCUUAGUCGUAUAGUCUUCCGUCACUUAGCUGACCAUGGGCAACUUUCUGGGAUCCAGCGAGCGACAUGGUAAAUGAGCUCCAGAA` the bound/input enrichment was 0.138 ratio.
For `UUGGAAAAUGGAUAUACUUUAUUUGACUACGACGUUGGACUGAAUGAUAUAAUUCAGCUGCUAGUUCGUCCAGACUCCAGUCUUCCUAGCACAUCUAAGCAGAAUGAUGCUCAGGUUAAA`, the bound/input enrichment was 0.22 ratio.
The bound/input enrichment of `CUUUUUUUAAAAAAAACAUUUCACCACCCACCAUCACCCCAAUCCAACCCACACCGAACCCUCGCGCACCCCAACCCCCAACAACAAACAACAACAACAACAACUGCAAAACAGAAAACA` is reported as 0.53 ratio.
`AGCAUGCGGAGCAGGACCAUAGAAGAGGGGAAAGGCACCGGGUUUGCCCACCCCUCACCCACCUGGCCCUCUGUGUCCAUUAGCACUCCCAGUGACGAACCCCUAGAGGGGACCGAAGAC` gave a bound/input enrichment of 0.133 ratio.

Series 2 — technique: RNA Bind-n-Seq; molecule type: RNA; sample: in vitro; tested at: 365 nM; reference: no-protein control; direction: higher = stronger binding
Target: RNA binding protein fox-1 homolog 2, RRM domain, GST-SBP tag (RBFOX2, Homo sapiens, UniProt O43251-10, residues 100-194)
Setting: natural RNA segment, single round, ends assumed
Shared flanks, not repeated: GGGAGUUCUACAGUCCGACGAUC … UGGAAUUCUCGGGUGCCAA
Construct (chain): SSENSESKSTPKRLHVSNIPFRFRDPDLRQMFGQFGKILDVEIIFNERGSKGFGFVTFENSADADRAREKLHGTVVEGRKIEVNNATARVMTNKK
`GAAUGUCUUUAUUUUUAAUACCAACAUCAGCAUAAAUCUAUUUUUGCUAGUAGAUCAAAGCUAUUUUCACACGCUCUGUUUUCUAUCUUGUAUCGAUCCUGCGAAUCAGU` — result for “RBNS enrichment (R)”: 0.406.
Under “RBNS enrichment (R)”, `CUCAGUAAUAUACUUUAUUCUUUGAAGAUUUAAUUUAAAAACUUCAUAGAAAAUCCUUUUUUGCUUUUCCUUUUGAGACAGAGUUUUGGUAGCUCCUACCAGCCUCCAAU` is recorded as 0.684.
`CUGGCCUUUCGAGCUUCAGAGAUGGGAGUCUGAUGGCAGUGUCCUGCUUGGAGAAGGCCCAGGGGUGUCCUCAUGGGGACUUCUGGAACAGACAGCCUUCUGACCCCUGU`: “RBNS enrichment (R)” 0.209.
`AUACAGCUAAACCUUUCUUAUGUAUAAAGUAUGCCUAUCAUAUACAGGGAGAGGUGGGUAAUAAACUUCCUGUAAUGACAGUGUUUGGCAUUUCUUUAUGGAUGGAAUUG`: “RBNS enrichment (R)” 1.2.
Under “RBNS enrichment (R)”, `UUCCCUCUCAGAGCCUGUGCCCGAAUCUUUAAUGUUCUCUGGGUGAAAGGUCCUGGGGAGAGCUUCGGGGCUCCCCCGAUGCCCAUCUCCAAUGCCAAUUCUUUGGUUUC` is recorded as 0.243.
For `UUUGUUGGCAACAAAACAGGAUAUUUCUCUCCUGAAUGUUGGUUUUGCAGACCCUACACAGCGGCCCUGGAUAGUGAAUUUUACCCAGGUUUUUAGGGGUCAAGGAGGCC`, “RBNS enrichment (R)” read 0.376.
`GCUCCUCCUGUGCCCCAAUCUUUCCCAGUCCUUUCCCCUCAGAUGGAGACUUCAUUAUGUUAAUGAACGAGAUAAGAAGAAAAUGGCGCUCAUUGUGGCCUUGUUGAGUU`: “RBNS enrichment (R)” 0.393.
`UGAGCUGCACAGUUCAGAUGAGACUGGACCCUCCCUUACUUACUCCUGAGCCCUGCUCUCCUCUCCUCCAUCCUGUCCCAAUCUGUGUCCCCCUUGACCUGUGGCUCCAG` — result for “RBNS enrichment (R)”: 0.663.
For `AAAAGUUUUUGACUGGAAAUACACUGUUUUGCAUCAAGCUGGAGUACUGGAUGGAAAACUCUACAAUAACAUUUUGUGCAUAAUUGUAGAAAUACAGAUUUUGUUGUUAU`, “RBNS enrichment (R)” read 0.843.
`UUCAGUCUGUGGGCGGGCGAUUGUCAGUGGGAUUGGUUAAAAAGCUCUUACCAGAGCUGGCUGGCCCACGGCUGGUUUUUCAAACUGAGUGAGCCCCGUAGUGAUGGCCU`: “RBNS enrichment (R)” 0.405.
For `CCCACAGCUGCCGCGGUGGCCCCUAGCCUGAGGGGCCUGGAGUCGUGGCCCUGCAUUUCUGGGUAGGGCUGGCAAUGGUUGCCUUAACCCUGGCUCCUGGCCCGAGCCUG`, “RBNS enrichment (R)” read 0.61.

Series 3 — target: CCNE1, cyclin fold, Cln2 fusion (human); technique: yeast growth competition, sequencing; sample: yeast; setting: strong parent motif; reference: not given; direction: higher = stronger binding
Parent: TICRR docking peptide (human); TKVRRNLFNQELL
`F8L`: “normalised enrichment score” 0.758.
`K2A`: “normalised enrichment score” 2.26.
`T1A`: “normalised enrichment score” 1.62.
Under “normalised enrichment score”, `R5A` is recorded as 1.61.
Under “normalised enrichment score”, `N6A` is recorded as 1.68.
Under “normalised enrichment score”, `L7A` is recorded as -0.118.
For `F8A`, “normalised enrichment score” read -0.276.

Further values, each from its own experiment
`PhoQ, residues 284 288 289 292 302 303 ASASEQ` has a fold induction of 6.8 (PhoP, residues 12 14 15 18 19 NQGLL (Escherichia coli, UniProt P23836); Sort-seq, measured: YFP reporter; E. coli; PhoQ-PhoP variant library, added: 10 µM Mg2+; reference: high Mg2+ state, higher = stronger signaling).

For quick reference, copied from above (series 3):
Under “normalised enrichment score”, `N6A` is recorded as 1.68.
Under “normalised enrichment score”, `R5A` is recorded as 1.61.
`F8L`: “normalised enrichment score” 0.758.
For `F8A`, “normalised enrichment score” read -0.276.
